# Assay results from different studies.
# Each line is one published result; not all experiments were run side by side. ± gives the spread as reported.
# Cell line: MDA-MB-231
Structure (SMILES),effect on,action,method,time,notes,IC50 [µM]
C[C@@H](O)[C@H](NC(=O)[C@H](CCCNC(=N)N)NC(=O)[C@H](CCCNC(=N)N)NC(=O)[C@H](CCCNC(=N)N)NC(=O)[C@@H]1CCCN1C(=O)[C@@H](N)CO)C(=O)N1CCC[C@H]1C(=O)N[C@@H](CO)C(=O)N1CCC[C@H]1C(=O)N[C@@H](CCCNC(=N)N)C(=O)N[C@@H](CCCNC(=N)N)C(=O)N[C@@H](CCCNC(=N)N)C(=O)N[C@@H](CCCNC(=N)N)C(=O)N[C@@H](CO)C(=O)N[C@@H](CCC(N)=O)C(=O)N[C@@H](CO)C(=O)N1CCC[C@H]1C(=O)N[C@@H](CCCNC(=N)N)C(=O)N[C@@H](CCCNC(=N)N)C(=O)N[C@@H](CCCNC(=N)N)C(N)=O,cell viability,,CellTiter-Blue,24 h,serum-free medium,> 100
CCCCCCCC(=O)NCC(=O)N[C@@H](C)C(=O)N[C@@H](CC(C)C)C(=O)N[C@](C)(CC)C(=O)N[C@@H](C)C(=O)N[C@H](C(=O)N[C@@H](CC(C)C)C(=O)OC)[C@@H](C)CC,cell growth or viability,,MTT,,,7
O=C1[O][Pt]2([OH])([OH])([NH]C3CCCCC3[NH]2)[O]C1=O (centres unmarked),cell growth or viability,,resazurin,72 h,,> 100
COC(=O)C1CN1S(=O)(=O)c1ccccc1C (centres unmarked),cell growth or viability,,MTT,48 h,,380
Cc1nn(-c2ccccc2)c(O)c1C(c1ccc(F)cc1)c1c(C)nn(-c2ccccc2)c1O,cell growth or viability,,MTT,48 h,,18.2
O=C1N[C@H]2[C@H](CS[C@H]2CCCCC(=O)OCc2ccnc(-c3cc(COC(=O)CCCC[C@@H]4SC[C@@H]5NC(=O)N[C@@H]54)ccn3)c2)N1.O=S(=O)([O-])C(F)(F)F.[Ru+2].c1cc[cH-]c1.c1ccc(P(c2ccccc2)c2ccccc2)cc1,cell growth or viability,,MTT,24 h,,11.6
C[C@H](N)[C@@H](CCCCCCCCCCCCCCC(=O)CCCCCCC[C@@H](O)[C@@H](C)N)O[C@@H]1O[C@H](CO)[C@H](O)[C@H](O)[C@H]1O,cell growth or viability,,resazurin,96 h,,5.99
CCCCc1ccc(S(=O)(=O)N2CC2C(=O)OC)cc1 (centres unmarked),cell growth or viability,,MTT,48 h,,15
COc1ccc(C(c2c(C)nn(-c3ccccc3)c2O)c2c(C)nn(-c3ccccc3)c2O)cc1,cell growth or viability,,MTT,48 h,,9.28
N[C@H](CC[As](O)O)C(=O)O,cell viability,,,,,5
Cc1nn(-c2ccccc2)c(O)c1C(c1ccc([N+](=O)[O-])cc1)c1c(C)nn(-c2ccccc2)c1O,cell growth or viability,,MTT,48 h,,39.6
N=C(N)NCCC[C@H](NC(=O)[C@H](CCCNC(=N)N)NC(=O)[C@@H]1CCCN1C(=O)[C@H](CCCNC(=N)N)NC(=O)[C@H](CCCNC(=N)N)NC(=O)[C@H](CCCNC(=N)N)NC(=O)[C@H](Cc1c[nH]c2ccccc12)NC(=O)[C@H](CCCNC(=N)N)NC(=O)[C@H](CCCNC(=N)N)NC(=O)[C@H](CCCNC(=N)N)NC(=O)[C@H](CCCNC(=N)N)NC(=O)[C@H](CCCNC(=N)N)NC(=O)[C@H](Cc1c[nH]c2ccccc12)NC(=O)[C@H](CCCNC(=N)N)NC(=O)[C@H](CCCNC(=N)N)NC(=O)[C@H](Cc1ccc(O)cc1)NC(=O)[C@H](CCCNC(=N)N)NC(=O)[C@H](CCCNC(=N)N)NC(=O)[C@H](CCCNC(=N)N)NC(=O)[C@@H](N)Cc1c[nH]c2ccccc12)C(N)=O,cell viability,,CellTiter-Blue,24 h,serum-free medium,4.5 ± 0.1
Cc1ccc(C(c2c(C)nn(-c3ccccc3)c2O)c2c(C)nn(-c3ccccc3)c2O)cc1,cell growth or viability,,MTT,48 h,,28.3
CC(C)[C@@H]1NC(=O)[C@H](Cc2ccccc2)NC(=O)[C@H](Cc2ccc(O)cc2)NC(=O)CCSSC[C@@H](C(=O)N2CCC[C@H]2C(=O)N[C@H](CCCNC(=N)N)C(=O)NCC(N)=O)NC(=O)[C@H](CCC(N)=O)NC1=O,colony formation,,,,,1.13
CC(C)C[C@H](NC(=O)[C@H](C)NC(=O)[C@H](CC(C)C)NC(=O)[C@@H](NC(=O)CNC(=O)[C@H](CC(C)C)NC(=O)[C@@H](N)Cc1ccccc1)C(C)C)C(=O)N[C@@H](CC(C)C)C(=O)NCC(=O)N[C@H](Cc1ccc(O)cc1)C(=O)N[C@@H](CC(C)C)C(=O)N[C@@H](C)C(=O)N[C@H](C(=O)N[C@@H](CCCNC(=N)N)C(=O)N1CCC[C@H]1C(=O)N[C@H](Cc1ccccc1)C(=O)N[C@@H](CC(C)C)C(=O)N1CCC[C@H]1C(=O)N[C@@H](CCCCN)C(=O)N[C@H](CCCCN)C(=O)N[C@@H](CCCCN)C(=O)N[C@@H](CCC(N)=O)C(=O)N[C@@H](CCC(N)=O)C(=O)N[C@@H](CCCCN)C(N)=O)C(C)C,cell growth or viability,,resazurin,,,12.5
CCCCCCN(CCCCCC)C1=[S+][Au-]2([S]1)[c]1ccccc1-c1cccc[c]12,cell growth or viability,,MTT,72 h,,81.3
COC(=O)[C@@H](NC(=O)[C@@H](NC(=O)[C@@H](NC(=O)[C@@H]1CCCN1C(=O)[C@H](C)NC(=O)OC(C)(C)C)C(C)C)C(C)C)C(C)C,cell growth or viability,,SRB,,,33
N.N.O=C([O][Pt]([Cl])([Cl])[O]C(=O)c1ccc(P(c2ccccc2)c2ccccc2)cc1)c1ccc(P(c2ccccc2)c2ccccc2)cc1.[Cl][Au].[Cl][Au],cell growth or viability,,resazurin,72 h,,3.2
CC1OC(OC2CC(O)C3(CO)C4C(O)CC5(C)C(C6COC(=O)C6)CCC5(O)C4CCC3(O)C2)C(O)C(O)C1O (centres unmarked),cell migration,inhibitor,,,,4.3
C#CCCCC[C@H](C)C[C@@H](C)C(=O)N(C)[C@@H](C)C(=O)N1CCC[C@H]1C(=O)N(C)[C@H](C(=O)N(C)[C@H](C(=O)OC)C(C)C)C(C)C,cell growth or viability,,SRB,,,3

# For quick reference, copied from above:
Structure (SMILES),effect on,action,method,time,notes,IC50 [µM]
CCCCCCN(CCCCCC)C1=[S+][Au-]2([S]1)[c]1ccccc1-c1cccc[c]12,cell growth or viability,,MTT,72 h,,81.3
COC(=O)[C@@H](NC(=O)[C@@H](NC(=O)[C@@H](NC(=O)[C@@H]1CCCN1C(=O)[C@H](C)NC(=O)OC(C)(C)C)C(C)C)C(C)C)C(C)C,cell growth or viability,,SRB,,,33
N.N.O=C([O][Pt]([Cl])([Cl])[O]C(=O)c1ccc(P(c2ccccc2)c2ccccc2)cc1)c1ccc(P(c2ccccc2)c2ccccc2)cc1.[Cl][Au].[Cl][Au],cell growth or viability,,resazurin,72 h,,3.2
